Measurements pooled from the literature.
Numbered parts are unrelated; each lists some results of a single study. Changes are numbered by the printed parent chain.

Block 1
Target: CCND3, cyclin fold, Cln2 fusion (human)
Method: yeast growth competition, sequencing
Medium: yeast
Setting: weak parent motif
Relative to: not given
Reading: higher = stronger binding
Starting sequence: CDC6 docking peptide (human); TLKGRRLVFDNQL
Substitution | normalised enrichment score
TAKGRRLVFDNQL [L2A] | 0.0621
TLKGRGLVFDNQL [R6G] | 0.0277
TQKGRRLVFDNQL [L2Q] | 0.0997
TLKGRRLGFDNQL [V8G] | 0.134
TLKGCRLVFDNQL [R5C] | 0.0556
TLKGRRLVDDNQL [F9D] | 0.11
TLKTRRLVFDNQL [G4T] | -0.000183
QLKGRRLVFDNQL [T1Q] | 0.0393
TLKGRRGVFDNQL [L7G] | 0.0972
TLKGGRLVFDNQL [R5G] | 0.232
TLKGRRLVFCNQL [D10C] | 0.163
TLKGDRLVFDNQL [R5D] | 0.00583
TLKGRRLVFDNLL [Q12L] | 0.165
TLKGRRLVFDNQP [L13P] | 0.169
TLKGRRSVFDNQL [L7S] | 0.0789
TLKGRRLPFDNQL [V8P] | 0.128
TLKGRRLVFDPQL [N11P] | 0.134

Block 2
Target: Histone acetyltransferase KAT6A, both winged helices, GST fusion (KAT6A, Homo sapiens, UniProt Q92794, residues 1-181)
Method: protein binding microarray
Molecule type: double-stranded DNA, one strand shown
Medium: in vitro
Concentration: not given
Setting: 8-mer, flanks averaged, mean of 2 arrays, mostly near background
Relative to: not given
Reading: higher = stronger binding
Residues (chain): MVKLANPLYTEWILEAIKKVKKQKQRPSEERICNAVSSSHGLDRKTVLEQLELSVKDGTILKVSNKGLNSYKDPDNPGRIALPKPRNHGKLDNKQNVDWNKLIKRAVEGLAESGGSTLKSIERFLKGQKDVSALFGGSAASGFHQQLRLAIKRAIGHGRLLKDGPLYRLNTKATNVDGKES
Strand | E-score
AAACGTGT | -0.00252
AGCCGTTG | 0.179
GAGTCTCA | -0.0772
CAGCCTCG | -0.093
CGATTGCG | 0.264
CAGCGAGA | -0.0175
AGAATACA | 0.00299
ACGACGAT | 0.0146
CTACAACC | -0.0676
GGCGGAAC | 0.216
CTGGCATA | -0.106
AGTCCTGG | -0.257
AGTACCGC | 0.318
CTTAGAAC | -0.101
CCAAACCG | 0.0394
ATGGTTCC | 0.03
CCGATAGC | 0.115
AGTTACGG | 0.141
CACGATGG | -0.0685
ATTTGCGC | 0.181
ATTCTTCC | -0.052
GGATGTGA | -0.0738
ACTTCTTA | -0.135
CCACAGAA | -0.157
AACGTGCA | -0.139

Block 3
Target: ABI1, truncated, D143A, DHFR fusion (Arabidopsis thaliana)
Method: DHFR PCA, deep sequencing
Medium: yeast
Setting: methotrexate growth selection, single substitutions
With: (+)-ABA 0.032 µM
Relative to: wild-type fitted maximum
Reading: higher = stronger binding
Starting sequence: PYL1, truncated, DHFR fusion (Arabidopsis thaliana); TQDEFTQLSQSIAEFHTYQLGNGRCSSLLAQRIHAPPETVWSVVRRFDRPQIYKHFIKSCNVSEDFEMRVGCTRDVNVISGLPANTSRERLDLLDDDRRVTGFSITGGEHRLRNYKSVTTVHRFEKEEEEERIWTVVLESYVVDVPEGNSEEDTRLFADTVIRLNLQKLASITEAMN
Substitution | relative binding score [%]
G148Q | -0.67
T86D | 8.4
A84K | 37.3
V78L | 69.7
R163T | 14
T101L | 74.4
C25R | -3.51
A170V | -2.06
E174N | -2.14
T6V | 37.3
F56E | 2.68
I57W | 1.28
S171D | 30.3

Block 4
Target: Centromere-binding protein 1, full length, His-tagged (CBF1, Saccharomyces cerevisiae, UniProt P17106, residues 1-351)
Chain of UniProt P17106 (whole entry, looked up): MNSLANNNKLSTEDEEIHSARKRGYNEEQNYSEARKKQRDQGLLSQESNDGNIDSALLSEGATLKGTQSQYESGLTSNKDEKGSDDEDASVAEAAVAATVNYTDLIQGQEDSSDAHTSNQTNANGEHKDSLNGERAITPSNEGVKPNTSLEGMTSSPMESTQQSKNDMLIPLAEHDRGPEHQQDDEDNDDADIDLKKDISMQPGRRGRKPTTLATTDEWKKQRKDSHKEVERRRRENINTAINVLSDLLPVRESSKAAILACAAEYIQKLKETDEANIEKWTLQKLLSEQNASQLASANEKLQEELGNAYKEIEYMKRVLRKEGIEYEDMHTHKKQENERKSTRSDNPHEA
Method: competition protein-binding microarray
Molecule type: double-stranded DNA, one strand shown
Medium: in vitro
Concentration: 2 µM
Setting: whole 60-bp probe, lowest competitor level
With: Pho4 competitor, 0.05 µM
Reading: higher = stronger binding
Constant ends, left off below: … GTCTTGATTCGCTTGACGCTGCTG
Strand | fluorescence intensity [a.u.]
CACCCCAACAAAGGACATGTGGAAATTGATCGTCGA | 81.9
CACTACGGAAGAAGCGTCGTGGCCGGATGGAAAGCA | 71.4
TCACTCTATAGCTGTCATGCGTGGATTTTTCCAGCT | 93.4
GACGCTGAGCTCCATCACGGGCTACGCCAGCGCAGC | 77
TCTTACAATGTTCCGCACGTTTATCAAAGTGTTACA | 124
GTCTTGTCTCATTGCGCTGTGGGTGTCCCCACTTCA | 83.4
CTTCTGTAAATTTGCATCGTGGGTGGACGCGCCCCG | 84
GTTGACTGTCCCCGTCACGATATCTTAATGAGTACT | 166
AAAAAGCAAGGTAGACAGGCGTGGAACGCGGAGTAG | 68.3
TGAGTTGATAGATCGCACGCTCTCGCCGATATAAGC | 57.8
AGTCGTCGTCCGGGACATAGGATCAGGAATCACAAT | 65.6
ATAGACGTACTGTTACACGTGATGGCGAGGATAGCG | 2340
TGATGTTTTGACTGTCATGCTACAAATGTTGGATGA | 87.5
AAAGCGGTAATTTGGTCTGTGGGTGCAGATATCTAT | 60
CTTCTGTAAATTTGCCAGGTGGGTGGACGCGCCCCG | 105
TCGAGGCAAGCTCAAAACGTGACGGCTACACCCCCT | 401
GTCAATGCCCTAGCAGACGTGCTTTACAAGACTGCC | 61.6
CATACCCAACCTTGGCTAGTGGGTGAAGATATTTGT | 64.4
TTAATCAATGATTTACCCGTGGGACCCAAGTCCAGT | 67.3
CTTTCCCGATCTTTTCACGTGAGGTTAGCACATTTG | 915
AAATGCCGCTTAGAGAACGTGGAAGAAGAGTTTGAT | 72.6
AAAGCGGTAATTTGCCTTGTGGGTGCAGATATCTAT | 86
TATCCGGACATTTTTCCCGTGATGGAATTGGCATCC | 146
TGAGTTGTCGGGCTCATCGTGCTTTATCAAGTGGTT | 66.9
AATTCAAATGTGGACGTCGTGACTCGAAACAGCATA | 230

Block 5
Target: RNA binding protein fox-1 homolog 2, RRM domain, GST-SBP tag (RBFOX2, Homo sapiens, UniProt O43251-10, residues 100-194)
Method: RNA Bind-n-Seq
Molecule type: RNA
Medium: in vitro
Concentration: 365 nM
Setting: natural RNA segment, single round, ends assumed
Relative to: no-protein control
Reading: higher = stronger binding
Constant ends, left off below: GGGAGUUCUACAGUCCGACGAUC … UGGAAUUCUCGGGUGCCAA
Construct (chain): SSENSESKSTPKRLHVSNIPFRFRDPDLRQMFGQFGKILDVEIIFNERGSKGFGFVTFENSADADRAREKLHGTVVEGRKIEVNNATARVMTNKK
Strand | RBNS enrichment (R)
UUUCAUAGAACACAACACUUGAGCAGAUGCAUCCAAGGAGGCGAGCAAAUGAAAAGGAAUCUAUUUAUGGAAUAAACUCGAAACCUAAAUUUCAGUAUUUUAGUAAUAUG | 0.273
AUCACUGCUUGGUGCCUGGCAAGCUGGAGAGGUCAGCCUGCUGCCAGGCAACUGGCUGUCUUUGGGAGGGGUGGCUCUUAAGACUCUACCUCUGAUUGCAUCACUAGGAC | 0.421
UUCGUUCAAAAUCCAAAUAAUAACAGAUACAAAGAUAACAAAAGCUUUACAAGCUGACUUGGAAUUGUGUGCUGCUUGCUGUUAGCUAGGGGAAAGGCCCUGCCAAUGUU | 0.757
AUAAUACAAGCCAGGGAGAGGCUUGUAUUACAUGACAGGUGUAAUUAGUCUGCUGAGCCAGCUUUACCCAAUGAAGGGCAUAUGUGUUAGAGAGAUUAGCUAAGAGUAGA | 1.25
GUGUCCUCUCUAUGUUUCAAAUAGCAAAUCUUGUUCAUUAAAAUACUUAUUAAAAGAUUUGAAUACCAAAUUUGGUGAUUUUUGUGAUUCCUGUGGCUACUUGGAUGUGG | 0.563
AGGCUCACAUGCACAGGAAUGCUACAUGAUGGCCAGCUGCUUCCCUCCUUGGUUAUCAUCCACUGCAGCUGCUAGUUAGAAAGGUUUGGAGGGAUGACUUUUAGUAAAUC | 1.99
GCAAAUAUGGCCCUAGAAACAAGUGAUAUGGAAUUUACUUGGUGAAUAAGUUAUAAAUUCCCACAGAAGAAAAAUGUGAAAGACUGGGUGCUAGACAAGAAGGAAGCAGG | 1.14
UAUACAGCGAAGAGACAAUCUCUGCACUUUGCUAUGUAGCUGUGUACAUAUCACUACAGUUAUAGGAAGUUUCAGUCUACAGUCCAUCCAAAGGACCAACCUGCCUUACA | 0.48
AAGUGAAAGCAUCAUCCCCCAAAGGAUCACUGCACAGUCCUACUACAGUAUUUUUAAGUAGCCCUCUAAAUACUUAAUUUUAAGCAAAAUCCCUUGGCCGCACUUUUAAG | 0.954
CUUCUGAGAGGCAAUGUGAAAGAGGAAGUAUUACUUUUUAUGUACAGAGUUAUUUAUUUAUAGAAAUUUUGGUACAGUGUACAUUGAAAACAUGUAAAAUAUUGAAGUGU | 0.829
CCUCACAGUUGAAAAUGUUCGGUCAUGAUUGCUUUUGAAACCAAAGGGGAAGGUACCGAUAUCAUUGAGCUAUUUAAAGUUGCCAGUUUGGGCUCCAGUAAUGCUUUCUG | 0.442
AGAAUGGGUUCAACAGGGAGUGGAGAGUGAAGCUAAUGUAAAAUAGUUUAGUGGCAGUGGGAAUCUUUGGACUUCAUUUACCUCUCUCAUUAUUUCUAUUACCAUGGAUA | 1.74

Block 6
Target: CRIPT, C-terminal peptide
Method: DHFR complementation, deep sequencing
Medium: yeast
Setting: single substitutions, model-inferred values
Relative to: wild type
Reading: higher = weaker binding
Starting sequence: ERBIN, PDZ domain 1 (human); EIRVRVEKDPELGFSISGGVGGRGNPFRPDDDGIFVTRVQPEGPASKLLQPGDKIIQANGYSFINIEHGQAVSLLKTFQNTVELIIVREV; partner TKNYKQTSV
Substitution | binding free energy change [kJ/mol]
A71M | 3.78
Q40K | -0.358
P26C | 3.35
I16N | 2.39
S15Y | 2.27
N80I | 0.777
N25W | 4.65
I85S | 0.0961
R28I | 0.1
I55S | 4.06
I55H | 4.75

A few entries again (block 1):
Substitution | normalised enrichment score
TLKGCRLVFDNQL [R5C] | 0.0556
TLKGRRLVDDNQL [F9D] | 0.11
TLKTRRLVFDNQL [G4T] | -0.000183
QLKGRRLVFDNQL [T1Q] | 0.0393
TLKGRRGVFDNQL [L7G] | 0.0972
TLKGGRLVFDNQL [R5G] | 0.232
TLKGRRLVFCNQL [D10C] | 0.163
TLKGDRLVFDNQL [R5D] | 0.00583
